Results collected from several papers.
Numbered parts are unrelated; each lists some results of a single study. Several values in a cell are separate wells, animals, samples, runs or records.
UniProt P28482, sequence (whole entry, looked up): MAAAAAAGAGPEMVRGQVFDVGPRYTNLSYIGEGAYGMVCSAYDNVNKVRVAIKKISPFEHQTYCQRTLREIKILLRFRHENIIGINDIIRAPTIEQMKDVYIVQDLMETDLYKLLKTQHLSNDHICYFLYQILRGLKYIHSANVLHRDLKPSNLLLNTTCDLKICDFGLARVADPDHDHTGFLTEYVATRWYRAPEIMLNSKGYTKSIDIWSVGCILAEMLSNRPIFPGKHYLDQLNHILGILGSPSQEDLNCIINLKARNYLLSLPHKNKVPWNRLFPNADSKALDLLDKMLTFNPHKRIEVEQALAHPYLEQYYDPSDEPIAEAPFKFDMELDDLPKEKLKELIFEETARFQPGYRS
UniProt P10721, sequence (whole entry, looked up): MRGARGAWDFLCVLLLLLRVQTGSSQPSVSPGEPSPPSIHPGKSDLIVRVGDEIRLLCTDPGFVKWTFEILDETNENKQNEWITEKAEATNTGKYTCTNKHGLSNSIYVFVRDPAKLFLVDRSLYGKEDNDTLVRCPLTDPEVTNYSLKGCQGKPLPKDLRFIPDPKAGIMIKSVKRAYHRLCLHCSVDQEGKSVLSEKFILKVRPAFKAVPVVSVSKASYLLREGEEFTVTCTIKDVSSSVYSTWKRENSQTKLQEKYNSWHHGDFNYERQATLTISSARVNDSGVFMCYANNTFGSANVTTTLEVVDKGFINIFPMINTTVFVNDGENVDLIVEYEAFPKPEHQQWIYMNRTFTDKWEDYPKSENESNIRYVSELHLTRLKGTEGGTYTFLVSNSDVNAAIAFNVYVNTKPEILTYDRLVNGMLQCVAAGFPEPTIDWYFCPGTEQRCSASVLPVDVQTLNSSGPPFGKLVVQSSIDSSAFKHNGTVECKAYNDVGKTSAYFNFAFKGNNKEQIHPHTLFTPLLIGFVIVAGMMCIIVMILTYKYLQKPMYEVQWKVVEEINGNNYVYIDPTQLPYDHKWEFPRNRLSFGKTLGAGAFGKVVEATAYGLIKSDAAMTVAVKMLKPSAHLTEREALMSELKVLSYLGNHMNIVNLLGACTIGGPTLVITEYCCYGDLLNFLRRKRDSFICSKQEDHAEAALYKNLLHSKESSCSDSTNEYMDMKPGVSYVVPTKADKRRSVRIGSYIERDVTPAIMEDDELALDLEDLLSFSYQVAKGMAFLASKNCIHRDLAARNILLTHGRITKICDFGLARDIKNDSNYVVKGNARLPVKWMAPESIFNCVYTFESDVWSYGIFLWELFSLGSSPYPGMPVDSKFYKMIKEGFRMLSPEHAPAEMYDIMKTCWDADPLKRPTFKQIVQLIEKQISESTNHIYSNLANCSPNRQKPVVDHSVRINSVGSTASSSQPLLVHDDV
UniProt Q9Y5S2, sequence (whole entry, looked up): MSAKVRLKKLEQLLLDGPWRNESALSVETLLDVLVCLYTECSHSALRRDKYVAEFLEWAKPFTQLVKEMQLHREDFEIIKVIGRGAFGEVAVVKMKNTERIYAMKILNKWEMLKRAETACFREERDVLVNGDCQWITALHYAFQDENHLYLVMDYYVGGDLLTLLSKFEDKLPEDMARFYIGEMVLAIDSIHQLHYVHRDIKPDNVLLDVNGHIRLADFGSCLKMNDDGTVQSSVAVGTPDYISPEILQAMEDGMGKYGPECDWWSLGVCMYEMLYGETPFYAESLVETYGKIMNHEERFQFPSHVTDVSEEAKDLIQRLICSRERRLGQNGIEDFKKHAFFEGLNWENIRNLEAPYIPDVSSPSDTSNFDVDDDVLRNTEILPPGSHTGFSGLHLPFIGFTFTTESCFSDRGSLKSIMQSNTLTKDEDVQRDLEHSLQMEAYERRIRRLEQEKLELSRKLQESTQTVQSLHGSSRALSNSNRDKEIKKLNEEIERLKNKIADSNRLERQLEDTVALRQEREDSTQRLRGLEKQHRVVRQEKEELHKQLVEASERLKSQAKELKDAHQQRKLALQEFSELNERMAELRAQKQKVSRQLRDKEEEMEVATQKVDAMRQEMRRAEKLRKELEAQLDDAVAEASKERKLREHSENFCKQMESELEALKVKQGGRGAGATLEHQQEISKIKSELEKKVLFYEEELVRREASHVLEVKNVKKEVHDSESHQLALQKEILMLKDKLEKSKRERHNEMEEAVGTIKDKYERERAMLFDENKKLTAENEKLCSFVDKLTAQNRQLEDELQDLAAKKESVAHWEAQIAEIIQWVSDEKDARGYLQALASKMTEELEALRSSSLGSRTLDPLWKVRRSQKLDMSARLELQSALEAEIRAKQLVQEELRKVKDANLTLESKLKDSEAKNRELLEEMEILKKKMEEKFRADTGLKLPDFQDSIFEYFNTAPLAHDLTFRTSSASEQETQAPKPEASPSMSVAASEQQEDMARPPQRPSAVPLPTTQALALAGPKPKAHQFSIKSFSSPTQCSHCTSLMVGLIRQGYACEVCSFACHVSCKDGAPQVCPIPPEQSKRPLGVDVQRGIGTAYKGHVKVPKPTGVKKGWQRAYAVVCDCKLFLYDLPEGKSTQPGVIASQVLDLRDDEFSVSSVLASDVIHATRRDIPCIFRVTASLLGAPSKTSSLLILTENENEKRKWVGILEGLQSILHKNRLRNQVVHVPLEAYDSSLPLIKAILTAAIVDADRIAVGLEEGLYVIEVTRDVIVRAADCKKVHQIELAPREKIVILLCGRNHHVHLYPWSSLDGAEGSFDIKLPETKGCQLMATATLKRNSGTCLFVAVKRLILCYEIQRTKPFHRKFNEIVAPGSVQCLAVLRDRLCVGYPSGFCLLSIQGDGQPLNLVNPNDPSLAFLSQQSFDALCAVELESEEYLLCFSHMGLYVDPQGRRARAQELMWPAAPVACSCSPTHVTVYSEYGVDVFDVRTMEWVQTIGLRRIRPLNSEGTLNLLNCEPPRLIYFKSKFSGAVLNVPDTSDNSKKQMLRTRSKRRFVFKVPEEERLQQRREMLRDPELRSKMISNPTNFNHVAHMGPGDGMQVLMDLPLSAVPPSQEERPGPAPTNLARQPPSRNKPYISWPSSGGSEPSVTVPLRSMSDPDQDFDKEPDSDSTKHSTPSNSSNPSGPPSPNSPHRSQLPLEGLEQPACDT
UniProt O60331, sequence (whole entry, looked up): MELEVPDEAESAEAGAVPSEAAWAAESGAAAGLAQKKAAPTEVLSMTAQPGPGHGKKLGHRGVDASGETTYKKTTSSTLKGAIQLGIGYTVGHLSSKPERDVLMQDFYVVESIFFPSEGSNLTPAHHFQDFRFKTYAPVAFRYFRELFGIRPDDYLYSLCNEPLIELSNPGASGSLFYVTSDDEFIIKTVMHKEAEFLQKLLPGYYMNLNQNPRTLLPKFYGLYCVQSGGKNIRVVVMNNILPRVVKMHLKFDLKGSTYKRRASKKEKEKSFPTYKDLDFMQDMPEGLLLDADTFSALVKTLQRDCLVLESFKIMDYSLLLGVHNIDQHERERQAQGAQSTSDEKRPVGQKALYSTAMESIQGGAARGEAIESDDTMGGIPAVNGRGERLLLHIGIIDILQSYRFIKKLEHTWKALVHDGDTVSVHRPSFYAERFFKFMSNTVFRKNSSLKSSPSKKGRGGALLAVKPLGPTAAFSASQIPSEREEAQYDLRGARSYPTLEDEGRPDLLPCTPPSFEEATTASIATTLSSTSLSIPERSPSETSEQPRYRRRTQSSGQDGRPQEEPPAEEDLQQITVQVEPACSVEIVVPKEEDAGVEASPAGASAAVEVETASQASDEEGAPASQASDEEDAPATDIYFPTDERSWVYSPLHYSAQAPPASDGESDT
UniProt Q9HAZ1, sequence (whole entry, looked up): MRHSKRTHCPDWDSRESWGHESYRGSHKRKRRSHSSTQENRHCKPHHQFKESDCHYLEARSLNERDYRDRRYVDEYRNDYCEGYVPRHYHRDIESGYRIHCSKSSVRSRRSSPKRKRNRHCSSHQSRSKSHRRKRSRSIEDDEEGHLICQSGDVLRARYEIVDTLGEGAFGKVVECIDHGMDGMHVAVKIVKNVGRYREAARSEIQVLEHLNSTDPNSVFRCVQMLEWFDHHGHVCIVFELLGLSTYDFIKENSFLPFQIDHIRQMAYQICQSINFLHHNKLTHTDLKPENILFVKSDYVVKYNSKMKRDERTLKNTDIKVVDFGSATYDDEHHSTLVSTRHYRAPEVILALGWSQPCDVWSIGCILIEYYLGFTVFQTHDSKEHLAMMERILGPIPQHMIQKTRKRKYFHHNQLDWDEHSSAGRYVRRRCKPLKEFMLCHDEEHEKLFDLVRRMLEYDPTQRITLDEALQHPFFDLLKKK
UniProt P06493, sequence (whole entry, looked up): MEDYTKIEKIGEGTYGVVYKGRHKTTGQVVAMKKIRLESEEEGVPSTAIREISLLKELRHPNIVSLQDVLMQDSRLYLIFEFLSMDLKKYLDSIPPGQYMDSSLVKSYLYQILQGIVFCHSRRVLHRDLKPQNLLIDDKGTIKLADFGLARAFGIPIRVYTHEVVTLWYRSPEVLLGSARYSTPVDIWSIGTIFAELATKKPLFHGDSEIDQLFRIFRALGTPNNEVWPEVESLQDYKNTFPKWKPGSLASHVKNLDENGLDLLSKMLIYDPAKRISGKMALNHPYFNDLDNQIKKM
UniProt Q07002, sequence (whole entry, looked up): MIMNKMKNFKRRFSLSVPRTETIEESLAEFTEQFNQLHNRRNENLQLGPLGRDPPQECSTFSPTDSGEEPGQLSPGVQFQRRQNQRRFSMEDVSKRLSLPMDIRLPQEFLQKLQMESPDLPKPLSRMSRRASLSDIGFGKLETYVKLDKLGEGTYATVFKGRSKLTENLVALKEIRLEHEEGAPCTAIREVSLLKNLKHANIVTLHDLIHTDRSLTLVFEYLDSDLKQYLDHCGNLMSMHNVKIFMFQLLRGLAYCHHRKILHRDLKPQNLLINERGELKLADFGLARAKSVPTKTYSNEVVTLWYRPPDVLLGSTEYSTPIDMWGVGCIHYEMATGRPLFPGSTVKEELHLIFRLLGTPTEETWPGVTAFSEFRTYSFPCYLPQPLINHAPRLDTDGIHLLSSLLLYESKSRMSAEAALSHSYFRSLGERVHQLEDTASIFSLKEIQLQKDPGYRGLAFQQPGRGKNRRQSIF

Sample 1
Organism: Plasmodium berghei
Action: inhibitor
Cells: Huh-7
Strain: GFP-expressing, liver stage
Concentration: 10 µM
Time: 24 h
Relative to: untreated control
For `C[C@H](CCC(=O)O)[C@H]1CC[C@H]2[C@@H]3C(=O)C[C@@H]4CC(=O)CC[C@]4(C)[C@H]3CC(=O)[C@]12C`, the infection rate was 110%.
For `S=P(N1CC1)(N1CC1)N1CC1`, the infection rate was 88.4%.
`Cc1cc(CC(=O)O)n(C)c1C(=O)c1ccc(Cl)cc1` gave an infection rate of 116%.
`CCOC(=O)[C@H](CCc1ccccc1)N[C@@H](C)C(=O)N1[C@H](C(=O)O)C[C@@H]2CCC[C@@H]21` gave an infection rate of 102%.
For `CCc1ccc(CCOc2ccc(CC3SC(=O)NC3=O)cc2)nc1` (stereo not drawn), the infection rate was 91.4%.
The infection rate of `COc1cc(NS(=O)(=O)c2ccc(N)cc2)nc(OC)n1` is reported as 99.2%.
The infection rate of `CC(=O)NS(=O)(=O)c1ccc(NC(=O)c2ccccc2C(=O)O)cc1` is reported as 82.9%.
`Cc1ncc(CO)c(CO)c1O` gave an infection rate of 93.3%.
`CCC1(c2ccccc2)C(=O)NCNC1=O` gave an infection rate of 34.2%.
For `CCCCNc1ccc(C(=O)OCCN(C)C)cc1`, the infection rate was 103%.

Sample 2
Cell line: mouse MPNST tumor cells
Technique: high-content nuclear imaging
Refers to: cell number
Concentration: 10 µM
Time: 12 h
Notes: mean of 2 replicates
Relative to: plate mean
Direction: higher = more cells
`Nc1nc2[nH]cc(CCc3ccc(C(=O)N[C@@H](CCC(=O)O)C(=O)O)cc3)c2c(=O)[nH]1` gave a nuclei count of -2.72 z-score.
The nuclei count of `Cc1ccc(S(=O)(=O)Cc2nc(-c3ccc(C(=O)NCc4cccnc4)cc3)oc2C)cc1` is reported as -0.892 z-score.
`CCCN(CCC)CCc1cccc2c1CC(=O)N2` has a nuclei count of 1.68 z-score.
`O=C(C=Cc1ccccc1)NC(NC(=S)Nc1ccc(Cl)cc1)C(Cl)(Cl)Cl` (stereo not drawn) has a nuclei count of -0.246 z-score.

Sample 3
Compound: c1ccc2c(-c3ccncc3)c[nH]c2c1
Observed: enzyme activity
Action: inhibitor
Concentration: 0.5 µM
Relative to: control
For Serine/threonine-protein kinase MRCK beta (CDC42BPB, Homo sapiens, UniProt Q9Y5S2): remaining activity read 104%.
Discoidin domain-containing receptor 2 (DDR2, Homo sapiens, UniProt Q16832) — remaining activity: 92.6%.
The remaining activity was 91.4% (Hepatocyte growth factor receptor (MET, Homo sapiens, UniProt P08581)).
For Mitogen-activated protein kinase 1 (MAPK1, Homo sapiens, UniProt P28482): remaining activity read 100%.
It gave 90.6% for remaining activity (Cyclin-dependent kinase 1, with cyclin A (CDK1, Homo sapiens, UniProt P06493)).
The remaining activity was 84.2% (Rho-associated protein kinase 1 (ROCK1, Homo sapiens, UniProt Q13464)).
It gave 102% for remaining activity (Serine/threonine-protein kinase MARK2 (MARK2, Homo sapiens, UniProt Q7KZI7)).
It gave 98.1% for remaining activity (Serine/threonine-protein kinase DCLK2 (DCLK2, Homo sapiens, UniProt Q8N568)).
Serine/threonine-protein kinase PLK3 (PLK3, Homo sapiens, UniProt Q9H4B4) — remaining activity: 95.3%.
The remaining activity was 91.2% (Cyclin-dependent kinase 9, with cyclin K (CDK9, Homo sapiens, UniProt P50750)).
The remaining activity was 84.6% (Misshapen-like kinase 1 (MINK1, Homo sapiens, UniProt Q8N4C8)).
The remaining activity was 91.6% (Serine/threonine-protein kinase Nek3 (NEK3, Homo sapiens, UniProt P51956)).
The remaining activity was 101% (Dual specificity protein kinase CLK4 (CLK4, Homo sapiens, UniProt Q9HAZ1)).
It gave 96.5% for remaining activity (Dual specificity mitogen-activated protein kinase kinase 1 (MAP2K1, Homo sapiens, UniProt Q02750)).

Sample 4
Structure (SMILES): CC(=O)Nc1c(C(C)=O)c(=O)n(C)c2nc(-c3ccc(Cl)cc3Cl)c(-c3ccc(Cl)cc3)cc12
Observed: cell-free assay
Technique: competition with immobilised ligand
Concentration: 1 µM
The remaining binding was 100% (Cyclin-dependent kinase 18 (CDK18, Homo sapiens, UniProt Q07002)).
For 5'-AMP-activated protein kinase catalytic subunit alpha-1 (PRKAA1, Homo sapiens, UniProt Q13131): remaining binding read 100%.
For Phosphatidylinositol 4-phosphate 5-kinase type-1 gamma (PIP5K1C, Homo sapiens, UniProt O60331): remaining binding read 100%.
It gave 100% for remaining binding (Mast/stem cell growth factor receptor Kit, autoinhibited (KIT, Homo sapiens, UniProt P10721)).
For STE20-like serine/threonine-protein kinase (SLK, Homo sapiens, UniProt Q9H2G2): remaining binding read 100%.
Serine/threonine-protein kinase WNK1 (WNK1, Homo sapiens, UniProt Q9H4A3) — remaining binding: 100%.
The remaining binding was 100% (Leucine-rich repeat serine/threonine-protein kinase 2 (LRRK2, Homo sapiens, UniProt Q5S007)).

Single results of other studies
Under “AUC extrapolated, observed”, `COc1ccc(-c2c(Nc3ccccn3)[nH]c3c(C4=CCCCC4)c(-c4ccccc4)nn3c2=O)cc1` is recorded as 93.1% and 84.7% and 89.6% (human, plasma; oral, 200 mg twice daily).

For quick reference, copied from above (sample 2):
The nuclei count of `Cc1ccc(S(=O)(=O)Cc2nc(-c3ccc(C(=O)NCc4cccnc4)cc3)oc2C)cc1` is reported as -0.892 z-score.
`CCCN(CCC)CCc1cccc2c1CC(=O)N2` has a nuclei count of 1.68 z-score.
`Nc1nc2[nH]cc(CCc3ccc(C(=O)N[C@@H](CCC(=O)O)C(=O)O)cc3)c2c(=O)[nH]1` gave a nuclei count of -2.72 z-score.
